Experimental data pooled from the literature.
Protocols differ between the studies behind these lines.
Cell line: HEK-293T

`C1=CCCC=CCC1.F[P-](F)(F)(F)(F)F.[Pt+][c]1ccccc1P(=Nc1ccccc1)(c1ccccc1)c1ccccc1` gave an IC50 of 0.94 µM (cell growth or viability, MTT; 24 h).
`Cc1ccc(C(C)C)cc1.O=C(N=P(c1ccccc1)(c1ccccc1)c1ccccc1)c1[c-]cccc1.[Cl-].[Ru+2]` has an IC50 of 4.1 µM (cell growth or viability, MTT; 24 h).
`[Cl][Au+][Cl].[O-][Cl+3]([O-])([O-])[O-].c1ccc(P(=NCc2ccccn2)(c2ccccc2)c2ccccc2)cc1` has an IC50 of 30.5 µM (cell growth or viability, MTT; 74 h).
`O=C(O)c1ccc([P+]([Au-][Cl])(c2ccccc2)c2ccccc2)cc1` gave an IC50 of 34.2 µM (cell growth or viability, XTT; 24 h).
With `Cc1ccc(C(C)C)cc1.O=C(N=P12CN3CN(CN(C3)C1)C2)c1[c-]cccc1.[Cl-].[Ru+2]` the IC50 was 142 µM (cell growth or viability, MTT; 24 h).
With `COc1ccc(CONC(=O)C2OC(C)(C)OC2COP(=O)(OCOC(=O)C(C)(C)C)OCOC(=O)C(C)(C)C)c(OC)c1` (stereo not drawn) the IC50 was greater than 200 µM (cytotoxicity, Alamar Blue).
For `[Cl][Pd-2]1([Cl])[N+](=P(c2ccccc2)(c2ccccc2)c2ccccc2)Cc2cccc[n+]21`, the IC50 was roughly 45 µM (cell growth or viability, MTT).
For `Cc1ccc(C(C)C)cc1.F[P-](F)(F)(F)(F)F.O=C(N=P(c1ccccc1)(c1ccccc1)c1ccccc1)c1ccccn1.[Cl-].[Ru+2]`, the IC50 was 2.8 µM (cell growth or viability, MTT; 24 h).
`[Cl][Au-]1([Cl])[N+](=P(c2ccccc2)(c2ccccc2)C2C=CC=C2)Cc2cccc[n+]21.[Cl][Au-]1([Cl])[N+](=P(c2ccccc2)(c2ccccc2)C2C=CC=C2)Cc2cccc[n+]21.[Fe+2].[O-][Cl+3]([O-])([O-])[O-].[O-][Cl+3]([O-])([O-])[O-]` has an IC50 of 4 µM (cell growth or viability, MTT; 74 h).
With `O=C1c2cccc[c]2[Au-]([Cl])([Cl])[N+]1=P(c1ccccc1)(c1ccccc1)c1ccccc1` the IC50 was 14.6 µM (cell growth or viability, MTT; 24 h).
The IC50 of `C1=CCC=C1.[Cl][Pd-2]1([Cl])[N+](=P(c2ccccc2)(c2ccccc2)C2C=CC=C2)Cc2cccc[n+]21.[Fe+2]` is reported as 15 µM (cell growth or viability, MTT; 74 h).
With `O=C([O][Ti+2][O]C(=O)c1ccc([P+]([Au-][Cl])(c2ccccc2)c2ccccc2)cc1)c1ccc([P+]([Au-][Cl])(c2ccccc2)c2ccccc2)cc1.c1cc[cH-]c1.c1cc[cH-]c1` the IC50 was 20.1 µM (cell growth or viability, XTT; 72 h).

Some of these lines once more:
With `O=C([O][Ti+2][O]C(=O)c1ccc([P+]([Au-][Cl])(c2ccccc2)c2ccccc2)cc1)c1ccc([P+]([Au-][Cl])(c2ccccc2)c2ccccc2)cc1.c1cc[cH-]c1.c1cc[cH-]c1` the IC50 was 20.1 µM (cell growth or viability, XTT; 72 h).
